Published values of several laboratories.
Each numbered part is a random draw from the data of one study; scales do not carry over between parts. Several values in a cell are separate wells, animals, samples, runs or records.
Sequence of UniProt P00519 (whole entry, unmodified, looked up): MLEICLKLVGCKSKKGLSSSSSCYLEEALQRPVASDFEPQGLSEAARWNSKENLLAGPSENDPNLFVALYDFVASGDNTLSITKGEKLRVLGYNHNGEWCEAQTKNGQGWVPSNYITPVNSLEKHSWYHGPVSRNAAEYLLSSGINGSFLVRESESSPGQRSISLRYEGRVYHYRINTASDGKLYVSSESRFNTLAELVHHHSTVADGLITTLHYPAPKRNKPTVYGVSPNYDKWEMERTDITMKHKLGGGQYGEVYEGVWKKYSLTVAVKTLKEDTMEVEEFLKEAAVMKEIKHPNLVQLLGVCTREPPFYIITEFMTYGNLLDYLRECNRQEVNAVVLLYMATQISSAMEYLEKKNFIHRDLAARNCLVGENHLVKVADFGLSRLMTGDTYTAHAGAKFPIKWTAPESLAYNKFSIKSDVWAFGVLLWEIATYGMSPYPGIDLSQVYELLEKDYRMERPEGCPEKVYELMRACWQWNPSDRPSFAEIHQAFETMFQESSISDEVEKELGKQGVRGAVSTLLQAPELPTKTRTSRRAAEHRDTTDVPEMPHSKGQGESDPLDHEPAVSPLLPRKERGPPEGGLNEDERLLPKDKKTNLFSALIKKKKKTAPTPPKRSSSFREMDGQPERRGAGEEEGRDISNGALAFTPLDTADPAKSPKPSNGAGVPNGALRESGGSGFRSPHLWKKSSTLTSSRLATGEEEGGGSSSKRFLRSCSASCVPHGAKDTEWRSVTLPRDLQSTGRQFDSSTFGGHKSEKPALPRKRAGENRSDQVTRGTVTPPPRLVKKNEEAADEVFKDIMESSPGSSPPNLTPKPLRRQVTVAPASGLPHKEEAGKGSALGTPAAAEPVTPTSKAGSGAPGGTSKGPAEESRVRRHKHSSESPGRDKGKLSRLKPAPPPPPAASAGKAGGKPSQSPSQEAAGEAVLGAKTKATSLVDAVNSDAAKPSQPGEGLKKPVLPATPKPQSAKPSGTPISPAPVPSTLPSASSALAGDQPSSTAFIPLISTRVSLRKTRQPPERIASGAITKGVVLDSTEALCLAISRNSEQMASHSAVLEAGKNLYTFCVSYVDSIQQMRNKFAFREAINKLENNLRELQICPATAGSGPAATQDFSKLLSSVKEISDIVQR
Sequence of UniProt P51957 (whole entry, looked up): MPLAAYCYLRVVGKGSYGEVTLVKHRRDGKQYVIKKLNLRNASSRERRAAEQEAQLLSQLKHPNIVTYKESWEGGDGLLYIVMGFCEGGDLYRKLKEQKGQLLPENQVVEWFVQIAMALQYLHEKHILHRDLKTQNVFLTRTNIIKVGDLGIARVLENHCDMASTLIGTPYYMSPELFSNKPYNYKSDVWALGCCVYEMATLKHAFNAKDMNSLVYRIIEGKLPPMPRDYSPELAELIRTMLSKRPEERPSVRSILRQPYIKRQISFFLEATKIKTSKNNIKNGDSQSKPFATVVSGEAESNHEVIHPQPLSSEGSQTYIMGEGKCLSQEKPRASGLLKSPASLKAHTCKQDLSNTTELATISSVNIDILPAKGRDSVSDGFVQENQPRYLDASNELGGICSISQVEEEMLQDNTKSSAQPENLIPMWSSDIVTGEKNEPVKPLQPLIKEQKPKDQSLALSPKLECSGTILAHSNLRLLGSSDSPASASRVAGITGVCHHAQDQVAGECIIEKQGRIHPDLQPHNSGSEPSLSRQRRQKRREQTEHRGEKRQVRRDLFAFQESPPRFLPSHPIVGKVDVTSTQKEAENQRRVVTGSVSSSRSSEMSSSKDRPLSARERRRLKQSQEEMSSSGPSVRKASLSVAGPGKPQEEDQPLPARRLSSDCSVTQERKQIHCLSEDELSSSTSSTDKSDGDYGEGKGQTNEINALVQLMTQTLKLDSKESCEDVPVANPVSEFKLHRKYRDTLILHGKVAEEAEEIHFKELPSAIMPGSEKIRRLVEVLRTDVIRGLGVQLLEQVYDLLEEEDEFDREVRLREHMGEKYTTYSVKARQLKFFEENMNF
Sequence of UniProt P07948 (whole entry, looked up): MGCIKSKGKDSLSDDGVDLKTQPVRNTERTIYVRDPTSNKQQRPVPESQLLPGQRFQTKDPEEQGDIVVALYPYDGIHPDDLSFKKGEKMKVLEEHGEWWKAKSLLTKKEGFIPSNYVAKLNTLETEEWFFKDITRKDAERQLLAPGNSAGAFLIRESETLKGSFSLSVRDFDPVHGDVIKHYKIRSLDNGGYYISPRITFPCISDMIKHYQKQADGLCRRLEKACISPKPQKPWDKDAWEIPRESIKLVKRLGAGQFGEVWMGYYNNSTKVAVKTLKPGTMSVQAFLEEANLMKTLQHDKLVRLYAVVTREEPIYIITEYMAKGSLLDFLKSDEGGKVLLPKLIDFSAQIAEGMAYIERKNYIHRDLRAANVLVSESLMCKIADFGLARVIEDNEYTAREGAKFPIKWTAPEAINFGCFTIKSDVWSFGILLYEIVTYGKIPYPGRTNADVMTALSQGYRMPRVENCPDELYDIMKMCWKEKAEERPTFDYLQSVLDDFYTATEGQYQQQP

Block 1 — Compound: O=C(c1ccccc1)c1ccc(N2CCOCC2)cc1O; effect on: enzyme activity; mode: inhibitor; tested at: 0.5 µM; relative to: control; measurement: remaining activity
target = CSNK2A1 (Homo sapiens, UniProt P68400); value = 91.1%
target = MKNK2 (Homo sapiens, UniProt Q9HBH9); value = 90.6%
target = EPHA5 (Homo sapiens, UniProt P54756); value = 112%
target = CHEK1 (Homo sapiens, UniProt O14757); value = 108%
target = MAP4K2 (Homo sapiens, UniProt Q12851); value = 116%
target = AKT3 (Homo sapiens, UniProt Q9Y243); value = 105%
target = PLK2 (Homo sapiens, UniProt Q9NYY3); value = 111%
target = IRAK4 (Homo sapiens, UniProt Q9NWZ3); value = 108%
target = MAPK12 (Homo sapiens, UniProt P53778); value = 100%
target = KIT (Homo sapiens, UniProt P10721); value = 96.2%
target = LYN (Homo sapiens, UniProt P07948); value = 105%
target = CSNK1A1 (Homo sapiens, UniProt P48729); value = 110%
target = BTK (Homo sapiens, UniProt Q06187); value = 103%
target = MAP2K6 (Homo sapiens, UniProt P52564); value = 93.5%
target = WNK2 (Homo sapiens, UniProt Q9Y3S1); value = 100%
target = PRKCI (Homo sapiens, UniProt P41743); value = 98.3%
target = PRKCD (Homo sapiens, UniProt Q05655); value = 98.8%
target = LRRK2 (Homo sapiens, UniProt Q5S007); value = 95.4%
target = Cyclin-dependent kinase 9, with cyclin T1 (CDK9, Homo sapiens, UniProt P50750); value = 97.9%
target = NEK4 (Homo sapiens, UniProt P51957); value = 97.7%
target = MAPK13 (Homo sapiens, UniProt O15264); value = 106%
target = PRKG1 (Homo sapiens, UniProt Q13976); value = 96.4%
target = MAP3K10 (Homo sapiens, UniProt Q02779); value = 100%

Block 2 — technique: competition with immobilised ligand; tested at: 1 µM; measurement: remaining binding
SMILES: CN1CCN(c2cnc3c(C4CCN(C(=O)c5ccc(OC(F)(F)F)cc5N)CC4)ncnc3c2)CC1
target = MAPKAPK2 (Homo sapiens, UniProt P49137); effect on = cell-free assay; value = 100%
target = CDKL2 (Homo sapiens, UniProt Q92772); effect on = binding; value = 100%
target = Tyrosine-protein kinase ABL1, phosphorylated (ABL1, Homo sapiens, UniProt P00519); effect on = cell-free assay; value = 86%
target = NEK6 (Homo sapiens, UniProt Q9HC98); effect on = cell-free assay; value = 92%
target = FLT1 (Homo sapiens, UniProt P17948); effect on = cell-free assay; value = 76%
target = PAK1 (Homo sapiens, UniProt Q13153); effect on = cell-free assay; value = 93%
target = STK39 (Homo sapiens, UniProt Q9UEW8); effect on = cell-free assay; value = 81%
target = Myosin-IIIb (MYO3B, Homo sapiens, UniProt Q8WXR4); effect on = binding; value = 73%
target = Aurora kinase B (AURKB, Homo sapiens, UniProt Q96GD4); effect on = cell-free assay; value = 90%
target = LYN (Homo sapiens, UniProt P07948); effect on = cell-free assay; value = 75%
target = BLK (Homo sapiens, UniProt P51451); effect on = cell-free assay; value = 91%
target = Tyrosine-protein kinase JAK3, JH1 (JAK3, Homo sapiens, UniProt P52333); effect on = cell-free assay; value = 100%
target = CSNK1E (Homo sapiens, UniProt P49674); effect on = cell-free assay; value = 100%
target = MAPKAPK5 (Homo sapiens, UniProt Q8IW41); effect on = cell-free assay; value = 100%
target = SGK2 (Homo sapiens, UniProt Q9HBY8); effect on = cell-free assay; value = 92%
target = FER (Homo sapiens, UniProt P16591); effect on = cell-free assay; value = 100%
target = PIP4K2B (Homo sapiens, UniProt P78356); effect on = cell-free assay; value = 79%
target = RET (Homo sapiens, UniProt P07949, M918T); effect on = cell-free assay; value = 100%
target = NEK4 (Homo sapiens, UniProt P51957); effect on = cell-free assay; value = 100%

Block 3 — SMILES: O=C(Nc1ccccc1)Nc1cccc(Oc2ccc3nccn3n2)c1; tested at: 1 µM; measurement: remaining binding
target = MKNK1 (Homo sapiens, UniProt Q9BUB5); technique = competitive binding panel; relative to = vehicle; value = 90%
target = NEK10 (Homo sapiens, UniProt Q6ZWH5); technique = competitive binding panel; relative to = vehicle; value = 100%
target = PIM2 (Homo sapiens, UniProt Q9P1W9); technique = competitive binding panel; relative to = vehicle; value = 98%
target = MAP3K7 (Homo sapiens, UniProt O43318); technique = competitive binding panel; measured = TAK1; relative to = vehicle; value = 100%
target = TEC (Homo sapiens, UniProt P42680); technique = competitive binding panel; relative to = vehicle; value = 100%
target = MAP3K5 (Homo sapiens, UniProt Q99683); technique = competitive binding panel; measured = ASK1; relative to = vehicle; value = 100%
target = STK17A (Homo sapiens, UniProt Q9UEE5); technique = competitive binding panel; measured = DRAK1; relative to = vehicle; value = 100%
target = DSTYK (Homo sapiens, UniProt Q6XUX3); technique = competitive binding panel; measured = RIPK5; relative to = vehicle; value = 100%
target = ABL1 (Homo sapiens, UniProt P00519, F317I); technique = competitive binding, scanMAX; value = 100% and 51%
target = STK38L (Homo sapiens, UniProt Q9Y2H1); technique = competitive binding panel; measured = NDR2; relative to = vehicle; value = 100%
target = CDKL5 (Homo sapiens, UniProt O76039); technique = competitive binding panel; relative to = vehicle; value = 98%
target = FRK (Homo sapiens, UniProt P42685); technique = competitive binding panel; relative to = vehicle; value = 100%
target = RAF1 (Homo sapiens, UniProt P04049); technique = competitive binding panel; relative to = vehicle; value = 79%
target = DCLK1 (Homo sapiens, UniProt O15075); technique = competitive binding panel; measured = DCAMKL1; relative to = vehicle; value = 100%
target = NEK11 (Homo sapiens, UniProt Q8NG66); technique = competitive binding panel; relative to = vehicle; value = 100%
target = CASK (Homo sapiens, UniProt O14936); technique = competitive binding panel; relative to = vehicle; value = 84%
target = TAOK1 (Homo sapiens, UniProt Q7L7X3); technique = competitive binding panel; relative to = vehicle; value = 100%
target = MET (Homo sapiens, UniProt P08581); technique = competitive binding panel; relative to = vehicle; value = 100%

Block 4 — effect on: enzyme activity; mode: inhibitor; tested at: 77 µM; relative to: untreated; measurement: remaining activity
Target: DNA polymerase theta, ATPase domain (POLQ, Homo sapiens, UniProt O75417)
Sequence of UniProt O75417 (whole entry, unmodified, looked up): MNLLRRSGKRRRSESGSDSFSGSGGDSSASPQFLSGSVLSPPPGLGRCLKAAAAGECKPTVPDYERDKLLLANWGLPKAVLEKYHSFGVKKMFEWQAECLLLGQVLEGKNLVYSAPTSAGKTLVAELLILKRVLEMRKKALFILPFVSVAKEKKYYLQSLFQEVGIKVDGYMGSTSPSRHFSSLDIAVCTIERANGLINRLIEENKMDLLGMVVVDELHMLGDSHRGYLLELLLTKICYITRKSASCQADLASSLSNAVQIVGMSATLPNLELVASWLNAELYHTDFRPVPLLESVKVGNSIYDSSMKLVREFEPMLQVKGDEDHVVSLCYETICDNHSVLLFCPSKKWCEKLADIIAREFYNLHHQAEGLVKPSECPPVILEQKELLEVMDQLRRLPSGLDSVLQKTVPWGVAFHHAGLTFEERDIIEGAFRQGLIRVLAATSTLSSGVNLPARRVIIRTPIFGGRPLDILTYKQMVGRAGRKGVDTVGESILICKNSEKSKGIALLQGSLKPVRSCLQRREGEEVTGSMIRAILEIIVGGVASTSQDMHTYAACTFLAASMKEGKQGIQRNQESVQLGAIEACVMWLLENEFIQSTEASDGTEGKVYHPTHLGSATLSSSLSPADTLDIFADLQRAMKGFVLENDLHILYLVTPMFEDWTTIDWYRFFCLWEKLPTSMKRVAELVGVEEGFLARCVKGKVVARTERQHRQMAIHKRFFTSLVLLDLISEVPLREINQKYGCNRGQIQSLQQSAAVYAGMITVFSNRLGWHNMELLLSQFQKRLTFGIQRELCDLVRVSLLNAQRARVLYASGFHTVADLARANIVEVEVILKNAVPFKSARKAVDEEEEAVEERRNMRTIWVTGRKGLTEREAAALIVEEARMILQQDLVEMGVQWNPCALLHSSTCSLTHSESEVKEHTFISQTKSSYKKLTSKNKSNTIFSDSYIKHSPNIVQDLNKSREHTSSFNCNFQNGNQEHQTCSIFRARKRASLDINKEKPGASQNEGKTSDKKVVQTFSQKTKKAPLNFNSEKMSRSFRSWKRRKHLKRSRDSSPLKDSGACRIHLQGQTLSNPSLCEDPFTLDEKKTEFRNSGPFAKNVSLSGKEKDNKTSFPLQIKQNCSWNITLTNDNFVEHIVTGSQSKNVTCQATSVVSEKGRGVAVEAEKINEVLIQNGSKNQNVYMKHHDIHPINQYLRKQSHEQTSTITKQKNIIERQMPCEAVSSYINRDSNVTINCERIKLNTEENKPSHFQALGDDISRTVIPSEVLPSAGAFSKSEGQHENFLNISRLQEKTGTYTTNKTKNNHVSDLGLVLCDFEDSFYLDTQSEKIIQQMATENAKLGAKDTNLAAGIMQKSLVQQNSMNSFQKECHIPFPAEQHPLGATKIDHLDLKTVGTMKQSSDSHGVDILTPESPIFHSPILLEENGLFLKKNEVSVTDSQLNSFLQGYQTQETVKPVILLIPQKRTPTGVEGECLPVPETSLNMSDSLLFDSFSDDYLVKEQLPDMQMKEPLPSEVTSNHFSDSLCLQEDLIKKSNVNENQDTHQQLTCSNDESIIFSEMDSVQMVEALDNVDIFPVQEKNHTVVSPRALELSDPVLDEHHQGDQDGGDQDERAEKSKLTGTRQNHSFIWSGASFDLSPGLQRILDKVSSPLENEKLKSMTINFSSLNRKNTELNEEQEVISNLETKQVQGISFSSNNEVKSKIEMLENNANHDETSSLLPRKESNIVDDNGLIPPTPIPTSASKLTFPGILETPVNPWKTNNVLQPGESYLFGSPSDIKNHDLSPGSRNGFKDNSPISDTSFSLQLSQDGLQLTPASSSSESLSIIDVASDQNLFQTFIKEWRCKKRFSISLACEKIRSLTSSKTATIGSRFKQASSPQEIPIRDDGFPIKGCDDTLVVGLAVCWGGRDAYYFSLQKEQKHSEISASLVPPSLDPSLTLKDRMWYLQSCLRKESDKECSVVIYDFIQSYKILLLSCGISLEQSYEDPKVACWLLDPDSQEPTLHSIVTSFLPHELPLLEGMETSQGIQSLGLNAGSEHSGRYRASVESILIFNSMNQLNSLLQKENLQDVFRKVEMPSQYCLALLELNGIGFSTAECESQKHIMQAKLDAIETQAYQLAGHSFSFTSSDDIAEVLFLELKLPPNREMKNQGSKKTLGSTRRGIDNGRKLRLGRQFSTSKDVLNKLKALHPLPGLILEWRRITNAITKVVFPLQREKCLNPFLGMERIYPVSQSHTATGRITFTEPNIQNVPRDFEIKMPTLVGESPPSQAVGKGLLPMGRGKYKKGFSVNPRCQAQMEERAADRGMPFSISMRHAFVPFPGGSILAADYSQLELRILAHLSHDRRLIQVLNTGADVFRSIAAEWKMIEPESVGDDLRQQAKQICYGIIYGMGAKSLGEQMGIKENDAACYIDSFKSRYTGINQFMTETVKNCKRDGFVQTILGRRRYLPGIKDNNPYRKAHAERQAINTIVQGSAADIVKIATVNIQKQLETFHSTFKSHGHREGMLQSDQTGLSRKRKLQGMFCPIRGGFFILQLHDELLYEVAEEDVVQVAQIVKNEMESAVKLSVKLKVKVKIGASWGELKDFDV
Compound = CC(=O)Nc1cc2ccccc2oc1=O; value = 87.8%
Compound = CCCCc1nc(Cl)c(CO)n1Cc1ccc(-c2ccccc2-c2nnn[nH]2)cc1; value = 97.3%
Compound = CC1=C(C(=O)O)N2C(=O)[C@@H](NC(=O)[C@H](N)C3=CCC=CC3)[C@H]2SC1; value = 99.8%
Compound = CC1=NN(c2ccc(C)c(C)c2)C(=O)/C1=N\Nc1cccc(-c2cccc(C(=O)O)c2)c1O; value = 91.6%
Compound = Nc1ncn(C2O[C@H](CO)[C@@H](O)[C@H]2O)c(=O)n1 (stereo partly drawn); value = 101%
Compound = CO[C@H]1C[C@H](O[C@H]2[C@H](C)[C@@H](O[C@@H]3O[C@H](C)C[C@H](N(C)C)[C@H]3O)[C@@H](C)C[C@@]3(CO3)C(=O)[C@H](C)[C@@H](O)[C@@H](C)[C@@H](C)OC(=O)[C@@H]2C)O[C@@H](C)[C@@H]1O; value = 87.5%
Compound = CCCCCCCCCCC[C@@H](C[C@@H]1OC(=O)[C@H]1CCCCCC)OC(=O)[C@H](CC(C)C)NC=O; value = 88%
Compound = CCCCCCCCCCCCCCCC(=O)OC[C@H](O)[C@H]1OC(=O)C(O)=C1O; value = 58.9%
Compound = COc1cc(C(O)CO)ccc1OS(=O)(=O)O (stereo not drawn); value = 102%

Some of these lines once more (block 1):
target = CHEK1 (Homo sapiens, UniProt O14757); value = 108%
target = AKT3 (Homo sapiens, UniProt Q9Y243); value = 105%
target = MAPK12 (Homo sapiens, UniProt P53778); value = 100%
target = EPHA5 (Homo sapiens, UniProt P54756); value = 112%
target = PRKG1 (Homo sapiens, UniProt Q13976); value = 96.4%
target = LRRK2 (Homo sapiens, UniProt Q5S007); value = 95.4%
